Measured values pooled from the literature.
Parts stem from different laboratories: compare values within a part only.
Sequence of UniProt O60285 (whole entry, looked up): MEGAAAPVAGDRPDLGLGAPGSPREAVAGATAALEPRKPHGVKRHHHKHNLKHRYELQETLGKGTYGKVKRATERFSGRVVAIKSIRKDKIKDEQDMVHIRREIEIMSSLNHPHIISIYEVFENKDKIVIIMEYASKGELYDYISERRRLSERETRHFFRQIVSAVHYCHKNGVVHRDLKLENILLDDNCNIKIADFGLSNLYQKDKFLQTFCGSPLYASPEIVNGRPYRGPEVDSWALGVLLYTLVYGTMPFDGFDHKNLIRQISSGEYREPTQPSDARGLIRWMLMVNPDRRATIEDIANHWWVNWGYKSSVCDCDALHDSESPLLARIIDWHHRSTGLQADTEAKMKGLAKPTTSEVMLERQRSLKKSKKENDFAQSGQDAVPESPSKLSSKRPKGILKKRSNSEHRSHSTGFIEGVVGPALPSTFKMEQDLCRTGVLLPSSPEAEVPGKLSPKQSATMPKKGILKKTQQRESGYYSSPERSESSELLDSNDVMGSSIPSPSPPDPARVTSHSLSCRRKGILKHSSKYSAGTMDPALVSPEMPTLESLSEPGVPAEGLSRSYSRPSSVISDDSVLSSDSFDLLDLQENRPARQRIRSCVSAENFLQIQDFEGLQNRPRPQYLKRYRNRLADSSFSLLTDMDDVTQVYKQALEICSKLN
Sequence of UniProt P29320 (whole entry, looked up): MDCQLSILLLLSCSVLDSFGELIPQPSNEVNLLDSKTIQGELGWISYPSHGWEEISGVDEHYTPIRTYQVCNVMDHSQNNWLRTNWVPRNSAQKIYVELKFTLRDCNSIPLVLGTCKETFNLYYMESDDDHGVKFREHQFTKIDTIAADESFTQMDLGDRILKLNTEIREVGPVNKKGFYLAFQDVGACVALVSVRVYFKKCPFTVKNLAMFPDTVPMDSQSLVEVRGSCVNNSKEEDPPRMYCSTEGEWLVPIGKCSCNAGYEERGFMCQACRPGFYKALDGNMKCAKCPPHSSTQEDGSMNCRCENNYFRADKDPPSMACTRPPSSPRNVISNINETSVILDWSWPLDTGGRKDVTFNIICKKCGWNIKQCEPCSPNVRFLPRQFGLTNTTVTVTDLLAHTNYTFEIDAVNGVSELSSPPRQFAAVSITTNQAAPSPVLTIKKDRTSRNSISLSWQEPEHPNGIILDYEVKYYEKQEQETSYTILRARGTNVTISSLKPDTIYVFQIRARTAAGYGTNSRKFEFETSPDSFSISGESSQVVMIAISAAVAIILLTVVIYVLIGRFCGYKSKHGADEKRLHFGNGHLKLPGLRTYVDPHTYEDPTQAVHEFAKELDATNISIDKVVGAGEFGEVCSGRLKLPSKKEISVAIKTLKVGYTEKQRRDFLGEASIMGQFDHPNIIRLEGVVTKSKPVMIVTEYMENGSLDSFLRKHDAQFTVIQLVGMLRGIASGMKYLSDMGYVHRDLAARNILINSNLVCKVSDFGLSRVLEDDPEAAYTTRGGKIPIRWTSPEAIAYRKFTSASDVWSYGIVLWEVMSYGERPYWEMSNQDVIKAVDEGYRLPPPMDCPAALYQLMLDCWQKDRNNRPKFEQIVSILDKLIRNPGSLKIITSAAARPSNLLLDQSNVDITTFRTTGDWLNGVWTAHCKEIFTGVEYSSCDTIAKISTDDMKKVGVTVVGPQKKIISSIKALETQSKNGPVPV
Sequence of UniProt Q8N2K1 (whole entry, looked up): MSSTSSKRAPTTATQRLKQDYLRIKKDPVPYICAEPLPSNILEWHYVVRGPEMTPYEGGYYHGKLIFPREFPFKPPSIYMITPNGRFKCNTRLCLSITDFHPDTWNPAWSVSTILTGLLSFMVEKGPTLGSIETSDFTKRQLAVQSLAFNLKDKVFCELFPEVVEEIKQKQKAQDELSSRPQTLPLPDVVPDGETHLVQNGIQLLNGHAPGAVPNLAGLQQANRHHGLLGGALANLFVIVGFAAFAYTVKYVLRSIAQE
Sequence of UniProt P06239 (whole entry, looked up): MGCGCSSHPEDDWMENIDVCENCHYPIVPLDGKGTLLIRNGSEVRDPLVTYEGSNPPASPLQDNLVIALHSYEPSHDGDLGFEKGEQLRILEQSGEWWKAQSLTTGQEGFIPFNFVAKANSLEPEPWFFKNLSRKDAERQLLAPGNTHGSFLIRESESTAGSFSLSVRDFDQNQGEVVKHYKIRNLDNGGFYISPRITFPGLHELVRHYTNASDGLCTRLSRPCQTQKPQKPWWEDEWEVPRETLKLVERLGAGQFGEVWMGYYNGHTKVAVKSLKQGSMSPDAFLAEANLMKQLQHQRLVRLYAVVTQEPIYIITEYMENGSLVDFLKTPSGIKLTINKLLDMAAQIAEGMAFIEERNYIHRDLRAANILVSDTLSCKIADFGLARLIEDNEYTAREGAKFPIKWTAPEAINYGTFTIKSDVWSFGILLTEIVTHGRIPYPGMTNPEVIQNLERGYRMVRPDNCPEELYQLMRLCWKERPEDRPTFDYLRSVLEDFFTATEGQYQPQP
Sequence of UniProt Q8WTQ7 (whole entry, looked up): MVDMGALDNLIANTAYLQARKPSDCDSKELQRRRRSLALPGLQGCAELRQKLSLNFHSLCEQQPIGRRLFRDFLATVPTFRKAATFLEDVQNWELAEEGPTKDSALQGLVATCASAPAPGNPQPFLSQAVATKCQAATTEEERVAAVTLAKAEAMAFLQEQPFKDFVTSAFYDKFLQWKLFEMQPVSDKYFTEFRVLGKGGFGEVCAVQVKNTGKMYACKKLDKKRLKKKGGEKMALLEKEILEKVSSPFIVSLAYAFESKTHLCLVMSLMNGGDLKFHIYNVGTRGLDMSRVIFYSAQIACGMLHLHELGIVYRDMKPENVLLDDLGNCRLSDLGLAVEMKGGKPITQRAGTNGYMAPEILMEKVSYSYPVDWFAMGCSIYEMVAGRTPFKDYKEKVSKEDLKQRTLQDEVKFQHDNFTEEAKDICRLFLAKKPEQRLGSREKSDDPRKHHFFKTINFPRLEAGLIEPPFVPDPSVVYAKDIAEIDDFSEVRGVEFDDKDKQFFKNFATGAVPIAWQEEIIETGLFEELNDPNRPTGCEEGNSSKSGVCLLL
Sequence of UniProt P62253 (whole entry, looked up): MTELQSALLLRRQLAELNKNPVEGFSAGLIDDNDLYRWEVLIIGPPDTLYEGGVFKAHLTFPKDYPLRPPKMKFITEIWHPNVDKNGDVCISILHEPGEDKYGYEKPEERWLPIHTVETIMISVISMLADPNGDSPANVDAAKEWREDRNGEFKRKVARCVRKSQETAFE
Sequence of UniProt P30291 (whole entry, looked up): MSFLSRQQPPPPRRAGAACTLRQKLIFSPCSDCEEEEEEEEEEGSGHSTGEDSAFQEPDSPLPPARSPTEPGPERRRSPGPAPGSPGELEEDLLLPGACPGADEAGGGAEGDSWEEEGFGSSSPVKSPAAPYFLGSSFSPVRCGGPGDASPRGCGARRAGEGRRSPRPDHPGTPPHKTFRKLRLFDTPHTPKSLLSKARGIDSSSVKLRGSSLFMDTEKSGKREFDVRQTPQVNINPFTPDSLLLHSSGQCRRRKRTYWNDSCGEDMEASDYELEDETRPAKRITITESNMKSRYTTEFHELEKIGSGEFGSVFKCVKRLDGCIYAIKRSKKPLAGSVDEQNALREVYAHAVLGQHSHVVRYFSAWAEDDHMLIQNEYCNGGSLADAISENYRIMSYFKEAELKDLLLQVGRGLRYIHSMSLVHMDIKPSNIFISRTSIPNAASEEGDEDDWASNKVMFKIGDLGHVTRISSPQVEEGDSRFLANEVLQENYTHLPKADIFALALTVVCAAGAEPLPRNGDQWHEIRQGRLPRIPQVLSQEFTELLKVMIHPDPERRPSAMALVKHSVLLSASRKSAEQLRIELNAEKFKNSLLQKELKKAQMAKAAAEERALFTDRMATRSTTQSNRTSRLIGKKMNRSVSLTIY
Sequence of UniProt P10398 (whole entry, looked up): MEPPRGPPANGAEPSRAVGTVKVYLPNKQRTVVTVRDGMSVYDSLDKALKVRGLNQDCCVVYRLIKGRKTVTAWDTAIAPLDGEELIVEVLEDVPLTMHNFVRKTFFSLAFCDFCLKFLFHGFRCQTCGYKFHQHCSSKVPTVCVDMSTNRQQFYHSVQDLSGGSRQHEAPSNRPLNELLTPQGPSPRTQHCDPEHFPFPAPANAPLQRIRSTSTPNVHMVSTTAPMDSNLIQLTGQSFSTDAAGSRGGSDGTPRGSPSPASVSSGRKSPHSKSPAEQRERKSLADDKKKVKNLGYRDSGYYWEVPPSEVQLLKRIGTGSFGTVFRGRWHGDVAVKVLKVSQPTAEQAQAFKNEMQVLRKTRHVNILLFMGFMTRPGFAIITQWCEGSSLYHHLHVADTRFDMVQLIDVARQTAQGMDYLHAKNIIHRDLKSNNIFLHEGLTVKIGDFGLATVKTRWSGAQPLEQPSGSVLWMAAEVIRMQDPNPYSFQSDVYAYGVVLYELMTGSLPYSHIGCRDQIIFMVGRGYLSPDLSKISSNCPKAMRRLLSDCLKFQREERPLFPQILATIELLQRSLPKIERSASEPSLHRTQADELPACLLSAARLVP

Series 1 — technique: EMSA with sequencing; molecule type: double-stranded DNA, one strand shown; matrix: in vitro; tested at: 10 and 20 nM; baseline: negative control set to 0; direction: higher = stronger binding
Target: Hepatocyte nuclear factor 3-alpha (Foxa1, Mus musculus, UniProt P35582, residues 1-468, full length assumed)
Sequence of UniProt P35582 (whole entry, looked up): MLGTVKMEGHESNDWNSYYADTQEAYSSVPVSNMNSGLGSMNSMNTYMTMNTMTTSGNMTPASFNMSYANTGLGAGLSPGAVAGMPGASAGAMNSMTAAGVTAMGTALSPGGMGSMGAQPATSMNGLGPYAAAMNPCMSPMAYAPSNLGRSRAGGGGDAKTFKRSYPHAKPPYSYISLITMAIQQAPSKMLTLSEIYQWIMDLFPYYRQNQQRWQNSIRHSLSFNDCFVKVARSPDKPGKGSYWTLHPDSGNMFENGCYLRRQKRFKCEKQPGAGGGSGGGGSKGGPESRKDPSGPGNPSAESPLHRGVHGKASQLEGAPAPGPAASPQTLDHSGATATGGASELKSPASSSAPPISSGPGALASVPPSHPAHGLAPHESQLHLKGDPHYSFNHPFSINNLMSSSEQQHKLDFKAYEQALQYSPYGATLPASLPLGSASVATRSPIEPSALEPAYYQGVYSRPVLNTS
Setting: whole designed probe, mean of two concentrations, ends assumed
`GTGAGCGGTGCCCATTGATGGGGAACTTTCCAGCCCTTAGTTTCTGGCATTTAACCTGACTCTGGTCCCTGAATGGCATGGGAGTGCTCTGACTCATTCGTTTCCACATTCATGCCACTTGTTTGCTTTTCTGTCACATTCTGATCTACAGAGATCTTTATTTGCTTTGTGTTTCCAATGGAGAAAGAGCTTGGGAAGGGAGGATCCTAATTGTCTAAATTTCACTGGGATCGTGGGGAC`: “normalised bound fraction” 0.482 ratio.
`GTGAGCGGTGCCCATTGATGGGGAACGTTATGTTTTTATACTACAAATTGCGGTAGGACTATGCTCAGAGCTATTGAGAGGAAATCAAGGAAAGACTCTGAACCTAAAGCTATTTTTTGCTGTTTACTTAGCCAACCAGTTGCCTCTTACCATCTCCCATTCAAACTAAAGTAAAATGTACTCCAAAATTATTCAAACTGCCTCTCTGTCTACATCCCTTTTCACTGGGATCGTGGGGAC`: “normalised bound fraction” 0.331 ratio.
For `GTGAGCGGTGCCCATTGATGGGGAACGAAAATATTTATAGTTTCTCTAGGTTGTCAAGAATTGAATTCCTTTTAAATGTAGGCGATGTCATTTTATTTTCTTAGATTACTTTGAACTTAAGATTACTCTTAATGAGGTAAATTACTTTTCCTACTTGAATTCAGAATGGAAACCATCTGTGACAGGGTTTATATTAACATGACTTTACTATCCACCTGTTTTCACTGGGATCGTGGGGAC`, “normalised bound fraction” read -0.0211 ratio.
Under “normalised bound fraction”, `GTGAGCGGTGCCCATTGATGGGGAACATCTTCCCCCTCTTCCTTGCCCCACCAGCTCACCTTCCCGGGTATATTGGAGATAGTATTTATTTTCAAGCCGGCATTCGTTAACCCTCTTCTGGCGCAAACTGCCAGAGCAAACAGATGAATCATGGTCCTTTGGCGACGCCAGGCTCCGGGAGAGCAAAGCACCGTGTCAGGGCCATGATCCGGGGTGGCCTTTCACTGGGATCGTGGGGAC` is recorded as 0.231 ratio.
`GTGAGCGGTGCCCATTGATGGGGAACATCTTCCCCCTCTTCCTTGCCCCACCAGCTCACCTTCCCGGGTTATTTGCAGATAGGAAAATAAATAAAGCCGGCATTCGTTAACGCAGTTCTGGCGCAAACTGCTGTTTGCTCTGGATGAATCATGGTCCTTTGGCGAGGCGTGGCTCCGGGAGAGCAAAGCACCGTGTCAGGGCCATGATCCGGGCTCGCCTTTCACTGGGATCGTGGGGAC` — result for “normalised bound fraction”: 0.343 ratio.
For `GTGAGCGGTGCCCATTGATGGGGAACTCTAAGTGCTTACCGGGTAACTGGAGGCCACTTGGTTGCTGGTTTTGGCTGGGCCTTTCTGGACTTTACCCCTCAGCCCCTGTTTATCCATCCCTGTTTACTCTTACTGTTCTATCTCCAGCACTGCCCGTCTCTGCCTCTCTCCACTGTCCCTGGAGCTCCCTGGGCCCTTCCCTGGGCCTCAGGACCTCACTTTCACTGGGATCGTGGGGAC`, “normalised bound fraction” read 0.14 ratio.
For `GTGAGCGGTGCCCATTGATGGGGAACTCCACAGTAGAAACGAAGGAGATGACAGATACCCCGGCACCAAAACTGACACCAGGTTTTTGTTGCTTCTTCCACTATATAATGGAGAAGTTCTGTTTACTCTATACTGTTAACATTGGCGTTGTGCAACTTAAGGAAACCCAAGAAACTGAATCACATCAAAGGTATGTCAGAGGTATGTGAACCAGAGCAATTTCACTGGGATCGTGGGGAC`, “normalised bound fraction” read 0.352 ratio.
`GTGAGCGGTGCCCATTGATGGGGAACATCTTCCCCCTCTTCCTTGCCCCACCAGCTCACCTTCCCGGGTATATTGGAGATAGGAAATTAATATAAGCCGGCATTCGTTAACCCTCTTCACGCGCATACTGCCAGAGCAAACAGATGAATCATGGTCCTTTGGCGACGCCAGGCTCCGGGAGAGCAAAGCACCGTGTCAGGGCCATGATCCGGGGTGGCCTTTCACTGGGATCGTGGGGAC` — result for “normalised bound fraction”: 0.148 ratio.

Series 2 — observed: cell-free assay; technique: competition with immobilised ligand; tested at: 1 µM
Structure (SMILES): COc1cc(-c2cn(C3CCc4ccccc4N(CC(F)(F)F)C3=O)nn2)ccc1-n1ccc(C)n1 (stereo not shown)
It gave 100% for remaining binding (Atypical kinase COQ8A, mitochondrial (COQ8A, Homo sapiens, UniProt Q8NI60)).
Mitogen-activated protein kinase 1 (MAPK1, Homo sapiens, UniProt P28482) — remaining binding: 100%.
For NUAK family SNF1-like kinase 1 (NUAK1, Homo sapiens, UniProt O60285): remaining binding read 92%.
Serine/threonine-protein kinase DCLK1 (DCLK1, Homo sapiens, UniProt O15075) — remaining binding: 100%.

Series 3 — technique: yeast two-hybrid; matrix: yeast; setting: mostly zero background; baseline: not given; direction: higher = stronger interaction
Sequence: RLTMMWEEVTCPICLDPFVEPVSIECGHSFCQECISQVGKGGGSVCPVCRQRFLLKNLRP (TRIM21 RING domain (UniProt P19474))
The “lacZ reporter activity” was 0 (UBE2G1 UBC core domain (UniProt P62253)).
UBE2Z UBC core domain (UniProt Q9H832) — “lacZ reporter activity”: 0.
For UBE2E3 UBC core domain (UniProt Q969T4): “lacZ reporter activity” read 0.
The “lacZ reporter activity” was 0 (BIRC6 UBC core domain (UniProt Q9NR09)).
It gave 0 for “lacZ reporter activity” (UBE2D1 UBC core domain (UniProt P51668)).
UBE2M UBC core domain (UniProt P61081) — “lacZ reporter activity”: 0.
It gave 0 for “lacZ reporter activity” (UBE2C UBC core domain (UniProt O00762)).
For UBE2J2 UBC core domain (UniProt Q8N2K1): “lacZ reporter activity” read 0.

Series 4 — observed: enzyme activity; mode: inhibitor; tested at: 0.5 µM; baseline: control
Structure (SMILES): Nc1nccc(-c2c(-c3ccc(F)cc3)ncn2C2CCNCC2)n1
The remaining activity was 80.1% (Tyrosine-protein kinase Lck (LCK, Homo sapiens, UniProt P06239)).
For Macrophage-stimulating protein receptor (MST1R, Homo sapiens, UniProt Q04912): remaining activity read 100%.
The remaining activity was 97.4% (Ephrin type-A receptor 3 (EPHA3, Homo sapiens, UniProt P29320)).
The remaining activity was 102% (Mitogen-activated protein kinase kinase kinase 5 (MAP3K5, Homo sapiens, UniProt Q99683)).
It gave 106% for remaining activity (Wee1-like protein kinase (WEE1, Homo sapiens, UniProt P30291)).
Serine/threonine-protein kinase A-Raf (ARAF, Homo sapiens, UniProt P10398) — remaining activity: 93.1%.
Serine/threonine-protein kinase Nek1 (NEK1, Homo sapiens, UniProt Q96PY6) — remaining activity: 100%.
Rhodopsin kinase GRK7 (GRK7, Homo sapiens, UniProt Q8WTQ7) — remaining activity: 106%.
For Tyrosine-protein kinase FRK (FRK, Homo sapiens, UniProt P42685): remaining activity read 95.4%.
For Dual specificity mitogen-activated protein kinase kinase 2 (MAP2K2, Homo sapiens, UniProt P36507): remaining activity read 105%.
For Angiopoietin-1 receptor (TEK, Homo sapiens, UniProt Q02763): remaining activity read 101%.
The remaining activity was 113% (Serine/threonine-protein kinase ULK2 (ULK2, Homo sapiens, UniProt Q8IYT8)).
It gave 102% for remaining activity (Serine/threonine-protein kinase TBK1 (TBK1, Homo sapiens, UniProt Q9UHD2)).
For Tyrosine-protein kinase Mer (MERTK, Homo sapiens, UniProt Q12866): remaining activity read 98%.

A few entries again (series 3):
UBE2M UBC core domain (UniProt P61081) — “lacZ reporter activity”: 0.
It gave 0 for “lacZ reporter activity” (UBE2C UBC core domain (UniProt O00762)).
For UBE2E3 UBC core domain (UniProt Q969T4): “lacZ reporter activity” read 0.
It gave 0 for “lacZ reporter activity” (UBE2D1 UBC core domain (UniProt P51668)).
